Assay results of several laboratories.
Numbered parts are unrelated; each lists some results of a single study. Changes are numbered by the printed parent chain.

Block 1
Target: RNA binding protein fox-1 homolog 2, RRM domain, GST-SBP tag (RBFOX2, Homo sapiens, UniProt O43251-10, residues 100-194)
Technique: RNA Bind-n-Seq
Form: RNA
Medium: in vitro
Concentration: 365 nM
Setting: natural RNA segment, single round, ends assumed
Baseline: no-protein control
Direction: higher = stronger binding
Quantity: RBNS enrichment (R)
All sequences stand within: GGGAGUUCUACAGUCCGACGAUC … UGGAAUUCUCGGGUGCCAA
Target sequence (chain): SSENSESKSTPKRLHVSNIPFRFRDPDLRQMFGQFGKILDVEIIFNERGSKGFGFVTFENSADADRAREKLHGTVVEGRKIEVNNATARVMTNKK
UUUUGAGGGGGAAGGUGGCGGGGUGGGAACCGUGUCAUUCCAGAGUGGAUCUGCGGUGAAGCCAAGCCGCAAGGUUACAAGGCAUCCUCACCAGGGGCCCCGCCUGCUGC: 0.659
CACAAGGGCCAGGCUCCAUUCUCCCUCCCUUUCCACCAGUGCCACAGCCUCGUCUGGAAAAAGGACCAGGGGUCCCGGAGGAACCCAUUUGUGCUCUGCUUGGACAGCAG: 0.43
AUUAGCUGAGUUUAGAGUACUUUCUGCUUAAUUAAUUUUUAUACUUAACUCUUCAGUAGAGGUUUACAAAGAGUACAAAGGUUAAAUUACAAAUUCAUUCCCAGCCUAGG: 0.539
CCCUCGUGGCAGGCGGGCAUGUCCCGCUCCCUUCCGCCACCAAUUUGUAUUAGAGAAGGCACUUUGAUUGUACAAUACUUCACAUUGCUUUUUUAAUGCAUAAAGGUUUG: 0.404
AUACCUUGUUCCUCUAUGUGCCGCUGUGUGCCAGCCCUCAAACAUCUCCUGUAAAGAGAACAGAGGAGUCUUUAAUGGUUUCUGGAAGGAGAAGGGAUAGGACUUUGUGG: 0.509
AUUUACAAUGCAGAAUUUUUUGAGUAAUUCUAGCUUUCAAAAAUUAGUGAAGUUCUUUUACUGUAAUUGGUGACAAUGUCACAUAAUGAAUGCUAUUGAAAAGGUUAACA: 0.5
CAAUGCAAAUGUCUAAUUGUCCCCCAGUGGGCAUAGUCAGUGUCGUUUAUAUUGUAGCAGUUACAGCUCUGUAGUUUAUGAUGCAAAUCUGCCAAGAGAGAUGUAUGUGU: 0.321
UGUACCCCACCACCCCAUUACCACAGCUGCCUUUGUGUGUUUGUGUCAAUAAAAAGCCAAACCCUGGUCCUGCUUGUUGCCUCUGAGAGUGGAGGGAAGGUGAGCUCCUG: 0.363

Block 2
Target: CCNB3, cyclin fold, Cln2 fusion (human)
Technique: yeast growth competition, sequencing
Medium: yeast
Setting: weak parent motif
Baseline: not given
Direction: higher = stronger binding
Quantity: normalised enrichment score
Starting sequence: MICAL3 docking peptide (human); LQLRRQLSFSEDS
D12F: 0.219
Q6Y: 0.345
Q6V: 0.924
F9M: 0.0363
Q6I: 0.541
Q6N: 0.154
S10P: 0.257

Block 3
Target: Histone acetyltransferase KAT6A, both winged helices, GST fusion (KAT6A, Homo sapiens, UniProt Q92794, residues 1-181)
Technique: protein binding microarray
Form: double-stranded DNA, one strand shown
Medium: in vitro
Concentration: not given
Setting: 8-mer, flanks averaged, mean of 2 arrays, mostly near background
Baseline: not given
Direction: higher = stronger binding
Quantity: E-score
Target sequence (chain): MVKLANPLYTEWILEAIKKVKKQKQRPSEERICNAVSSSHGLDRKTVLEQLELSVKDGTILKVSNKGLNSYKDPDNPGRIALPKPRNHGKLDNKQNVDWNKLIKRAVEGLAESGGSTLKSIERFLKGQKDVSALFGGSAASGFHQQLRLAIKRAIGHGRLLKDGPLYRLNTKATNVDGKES
TCTTTGAA: -0.115
GAACATAC: -0.174
CCTGAAGC: -0.16
CGAGAAGC: 0.129
ACGTACAA: -0.0284
AATAATAA: -0.0174
CGATAGTA: -0.0098
AATACCGT: 0.171
CCTACCAG: -0.135
GCGGTGCA: 0.123
ATGGGAAC: -0.0923
AGTACCGA: 0.0166
CGAATGAC: -0.0206
ATAGGCCC: -0.055

Further values, each from its own experiment
PhoQ, residues 284 288 289 292 302 303 SNGLAW — fold induction (PhoP, residues 12 14 15 18 19 TQAIL (Escherichia coli, UniProt P23836); Sort-seq, item: YFP reporter; E. coli; PhoQ-PhoP variant library, added: 10 µM Mg2+; baseline: high Mg2+ state, higher = stronger signaling): 12.5

Excerpt of the above (block 3):
CGATAGTA: -0.0098
AATACCGT: 0.171
CCTACCAG: -0.135
GCGGTGCA: 0.123
ATGGGAAC: -0.0923
